Assay results pooled from the literature.
Parts stem from different laboratories: compare values within a part only. Changes are numbered by the printed parent chain.

Block 1
Target: CCNB2, cyclin fold, Cln2 fusion (human)
Technique: yeast growth competition, sequencing
Sample: yeast
Setting: weak parent motif
Baseline: not given
Direction: higher = stronger binding
Starting sequence: RBL1 docking peptide (human); GSAKRRLFGEDPP
| Change | normalised enrichment score |
| --- | --- |
| L7I | 0.666 |
| E10T | -0.0242 |
| R5S | -0.0414 |
| R5L | -0.166 |
| E10S | 0.821 |
| L7D | -0.319 |
| P13H | 0.755 |
| S2I | 0.31 |
| E10D | 0.299 |
| P13A | 0.231 |
| R5T | -0.429 |
| P12W | 0.425 |
| R5H | 0.319 |
| R6A | -0.196 |
| R6I | -0.46 |
| A3V | 0.924 |
| S2A | 0.648 |
| F8A | 0.214 |
| G9L | -0.452 |
| F8I | -0.0328 |
| R5D | -0.259 |
| A3D | -0.473 |

Block 2
Target: RNA binding protein fox-1 homolog 2, RRM domain, GST-SBP tag (RBFOX2, Homo sapiens, UniProt O43251-10, residues 100-194)
Technique: RNA Bind-n-Seq
Form: RNA
Sample: in vitro
Concentration: 365 nM
Setting: natural RNA segment, single round, ends assumed
Baseline: no-protein control
Direction: higher = stronger binding
All sequences stand within: GGGAGUUCUACAGUCCGACGAUC … UGGAAUUCUCGGGUGCCAA
Construct (chain): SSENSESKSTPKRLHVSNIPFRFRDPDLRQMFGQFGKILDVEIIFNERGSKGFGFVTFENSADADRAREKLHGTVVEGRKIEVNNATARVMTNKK
| Strand | RBNS enrichment (R) |
| --- | --- |
| AAGCUGGUUGUUAUUAACCAAGCUACAGAUUCACACUUUCUGGCCUAAACCCUAAUGGGAUGAGGCUUUUCACCCCAGGCCAUGCUGGUGGUGAUUUUUUAGCCCCUAAA | 0.285 |
| CCUCGACUCUUGAGAGGGAGGCUUUGGUAUCCUUGGGUCUCAGCAUGGACAGUUAUGUAUAUCUACUUGUAUAGAGGGGGACAGUUUUCCACAUCGAUCCUUGCCCUCUU | 1.17 |
| CAUGUUCAUUCUCAUGUUUUUUGUCAGUGUGACCUUCUCAUGCCCUGUCAUGAUAGAGCUGUAAUUCUGGUGUCACACGGAUCACUUACUGGAGGUGUAUAAUAUGAGAU | 0.487 |
| AGCUAUUGUCAGCUUCUCUAUUUCAAAAUGCAAUCAGCAUAUAACUAUAUUGAUAUUAGAAGAUAUUUGUUUUUUAAAAUAUAUUGAUGUAUGAUAAAGAUGAUCUAAUU | 0.655 |
| GCAGUCCUAUAGUAACCGAGCUUGCACUCGGGAGGUAGGAAGCCAGAGGCCAGCCUCAAGGUGGCCAUGUCGAGGUGAGGCCAGCUUGGGCUAUCCGAGACGCUGUCAGC | 0.375 |
| ACACGCACCCACACAGACACAGAGGGAAGGGGUUGGGAUGGGGACAGGGUGCACAGCAGGGCGGGGUAGGACCCCAGCCCCUCCCAAAACAGCCUCUCCUUCUCCCAUAG | 0.282 |
| AACAUCCCAGGAAUGAGCUAUAAGACUCCAUUGCUUUCUGGACUUUAGUGACCAGCUGAUCUUCCCUUGGAUCCUCCAAUAAAGGGGAAAAAAUACUUGUCUUAUGUUGU | 0.408 |
| ACCCAUAUGAGAGAAAGGAUUCUCAUACUUAGAACUUUCCUAUGAAGAAAUGGUGGUAAACUUUCUCUACCUAGAAGUAGUGGAAAUUUCAAGGUCAUCUUAAAAAAGAU | 0.395 |

Block 3
Target: ABI1, truncated, D143A, DHFR fusion (Arabidopsis thaliana, UniProt P49597)
Technique: DHFR PCA, dose-response
Sample: yeast
Setting: Hill fit, mean, not affinity
With: (+)-ABA, dose series
Direction: lower = more sensitive
Starting sequence: PYL1, truncated, DHFR fusion (Arabidopsis thaliana, UniProt Q8VZS8); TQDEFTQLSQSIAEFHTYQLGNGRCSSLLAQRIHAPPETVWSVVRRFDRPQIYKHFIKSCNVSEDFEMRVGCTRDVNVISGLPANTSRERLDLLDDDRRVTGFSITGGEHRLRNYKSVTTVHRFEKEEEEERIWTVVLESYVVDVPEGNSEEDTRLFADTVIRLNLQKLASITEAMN
| Change | ABA EC50 [µM] |
| --- | --- |
| M68K | 33.5 |
| E67N | 2.72 |
| S26N | 8.21 |
| C72W | 24 |
| P50I | 667 |
| E151G | 7.01 |
| N61Y | 2.57 |
| D144R | 90.8 |
| D96G | 181 |
| S171A | 1.53 |
| I105T | 37.9 |
| Y18F | 13.5 |
| K168H | 1.58 |
| R69P | 150 |
| S63T | 2.67 |
| T160S | 19 |
| S171M | 2.67 |
| T106W | 14.2 |
| I79F | 4.7 |
| L156R | 21.1 |
| V118H | 8.55 |
| Q51E | 3.04 |
| S171W | 6.23 |
| Q7W | 1.63 |
| T6L | 8.93 |

Block 4
Target: Sal-like protein 4, full length isoform B (SALL4, Homo sapiens, UniProt Q9UJQ4-2, residues 1-616)
Technique: universal PBM
Form: double-stranded DNA, one strand shown
Sample: in vitro
Concentration: not given
Setting: 8-mer, flanks averaged, mean of replicates
Direction: higher = stronger binding
| Strand | E-score |
| --- | --- |
| CACTACCG | -0.126 |
| GGGAGCAA | -0.163 |
| AGTGCTAT | 0.107 |
| AATCGGCG | -0.227 |
| GCGTTGGA | -0.181 |
| TAACCAGA | 0.0547 |
| TTCGGAAA | -0.0489 |
| CCCACGTA | -0.026 |
| AGTAGAAC | 0.196 |
| CGTTGATA | 0.141 |
| TTAGGCAA | -0.0158 |
| ACAAAATG | 0.274 |
| AAACTCAC | 0.00256 |
| CTAATAAA | 0.331 |
| AATTTCCG | 0.063 |
| AACAAAAT | 0.267 |
| ATGCACTC | -0.0126 |
| AGAGATCT | -0.0511 |
| GTAACTAA | 0.0445 |
| TCAGCAAA | 0.165 |
| CAACCAAC | -0.1 |
| TCTAAGAA | 0.1 |
| GGGTCAGA | -0.222 |
| AGTTATTC | 0.198 |
| GGCGCCCA | -0.184 |

Repeated from above (block 3):
| Change | ABA EC50 [µM] |
| --- | --- |
| Q51E | 3.04 |
| C72W | 24 |
| D96G | 181 |
| S171M | 2.67 |
| P50I | 667 |
| E151G | 7.01 |
| S63T | 2.67 |
| S26N | 8.21 |
| I105T | 37.9 |
| K168H | 1.58 |
| S171A | 1.53 |
| T106W | 14.2 |
| N61Y | 2.57 |
